Results of several laboratories.
A part holds a random share of what one study measured.

Block 1
Target: RNA binding protein fox-1 homolog 2, RRM domain, GST-SBP tag (RBFOX2, Homo sapiens, UniProt O43251-10, residues 100-194)
Technique: RNA Bind-n-Seq
Form: RNA
Sample: in vitro
Tested at: 365 nM
Notes: natural RNA segment, single round, ends assumed
Relative to: no-protein control
Reading: higher = stronger binding
Quantity: RBNS enrichment (R)
Shared flanks, not repeated: GGGAGUUCUACAGUCCGACGAUC … UGGAAUUCUCGGGUGCCAA
Construct (chain): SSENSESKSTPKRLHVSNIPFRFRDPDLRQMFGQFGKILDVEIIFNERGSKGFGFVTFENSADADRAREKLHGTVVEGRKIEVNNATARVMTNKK
UCAGAGGAACUUUUCACUUGAAACUGUUGAUCUACUUGUCCAAAAGACCAGCUGCUGCGACACUAAUGCUAAGCCUAUGGGGAAGCACUGUUGACCUGCUCAGGUGCACA: 0.21
GAUUGAUCUUAACUGAACGAAAACAAAACUGCAUAUGUACUUAAACAGUCUGCAUAUUUGCCAUCCAGCAGAAGACUGAAGGGUGGUCAGAACAGAGGCUUUUUGUUUUU: 0.345
CUAACCCAGCAUUGCCCAAACUAUUUUGACACCAGGACCUUUUUCUCCUUUGGGAUACUUAUGAACCUCUCACUAAUGUCCUGUGGAGAACAUUUUGGGAAACACUAUGU: 0.512
GAUUAGAGCUGCCUUUCCCAGGGAAAAAGUGUCGUCUCCCCGACCCUCCCGUGGGCCCUGUGGUGUGAUGCUGUGUCUGUAUAUUCUAUACAAAGGUACUUGUCCUUUCC: 0.344
GAGGACAGGGCAUUGUCCUCAGUCAGAUACAACAGCAUUUGGGGCCAUGGUACCUGCACACCUAAAACACUAGGCCACGCAUCUGAUCUGUAGUCACAUGACUAAGCCAA: 1.19
AGGUGGCCCUGUCUCAAGCACCUCUCUGGCCCUCUGGUGGCCCUUGCUUAAUAAAGAUUCUCCGAGCCAUUCUGAGUCUCUGUGAGUGAUUCCAAUCAGCUUCAGCCUCA: 0.394
AGAGGGCUGAGGGCCCUGGAGAGCCGGGGAGGGAGAAGAUGGGAAGUCCUGUCGUGUUGCCCACCAGCCUCUCACAUUUCAUCCUGUCACGAUGCUCUACCCUCCCUCCC: 0.617
UCAUCCUGGCUGGGAGAAGUGGGACCGAGCCACCCAGCCCCACUAUCCCCAAGCAGCCCUACAGCCGGGAUGGGAGGCACGUGGCCUCUCUUUUAUCCGUCUAUUUAUUU: 0.382
UCUAAAACCCACCUUUGUCUGAGGUGCCGGGAGUAGCCAUGGUACCCCCUUCCUGGGCAUCCGUUCGGGUUUUCUAACCGUUGUCUUGUUCUGGGGUGAGCGGGGAGCGC: 0.543
GGACUUGGCCUGAGGCCUUUCGGGCCUCUCCAGUGGGUUCUGUUUAUCCUCUCAUGGGUGAUUAUCUCAGUGGUGUCACCAGGGGCUUCCUCCCAGAAGUCAGUCAUCCC: 0.315
AUUAACAUCAUUGGUCAUUUUUAAAAAAAAGAAAAUAAGAAAAAACCGCAGAAGAAAUGCAUUCACACAGUCGCAGAGAUGCAGGCCUUGCCAGUGGUGUGCCGGGCGCG: 0.491
UUAAAAUAAAAUUUACUUCCGACGUUUUAAUUACAAAUGUUUGCCACAUUAACUUCUCUGAUGCCUUAAAAGUGGACUUCUUUGAAGAACUUCUGUGCUAUUUUAUCACA: 0.724

Block 2
Target: Histone acetyltransferase KAT6A, winged helix 2, GST fusion (KAT6A, Homo sapiens, UniProt Q92794, residues 85-181)
Technique: protein binding microarray
Form: double-stranded DNA, one strand shown
Sample: in vitro
Tested at: not given
Notes: 8-mer, flanks averaged, mean of 2 arrays, mostly near background
Relative to: not given
Reading: higher = stronger binding
Quantity: E-score
Residues (chain): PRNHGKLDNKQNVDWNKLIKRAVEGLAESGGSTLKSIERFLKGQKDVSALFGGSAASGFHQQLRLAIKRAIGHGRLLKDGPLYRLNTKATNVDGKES
AGATTAAC: 0.0981
CTGCAACC: -0.0888
CACGCCAG: 0.0674
CTAAAGTA: -0.108
AACGAGTT: -0.035
CGTCATAG: -0.04
CGGGAAGC: 0.276
TACCTTGA: 0.00177
AATGATCT: 0.0659
TATCCTAA: 0.0139
GCTCCATA: -0.0435
AGCAATAG: -0.028
TGAGCTCA: 0.153
AAATGACC: -0.137
GGTCTCTA: -0.0838
AAAGCAAT: 0.169
ATCACGAG: -0.104
AAGGTCTA: -0.0986
TCACAGAA: 0.00134
AACACGAC: 0.0759
AGGTTCGG: -0.0333
ACCGGGAT: 0.0586
GGGAAGCA: 0.0431
AGCCCGCC: 0.171
ACGGACTA: -0.239

Block 3
Target: RING finger protein unkempt homolog, zinc fingers 1-6, GST-SBP tag (UNK, Homo sapiens, UniProt Q9C0B0, residues 30-357)
Chain of UniProt Q9C0B0 (30-357, looked up): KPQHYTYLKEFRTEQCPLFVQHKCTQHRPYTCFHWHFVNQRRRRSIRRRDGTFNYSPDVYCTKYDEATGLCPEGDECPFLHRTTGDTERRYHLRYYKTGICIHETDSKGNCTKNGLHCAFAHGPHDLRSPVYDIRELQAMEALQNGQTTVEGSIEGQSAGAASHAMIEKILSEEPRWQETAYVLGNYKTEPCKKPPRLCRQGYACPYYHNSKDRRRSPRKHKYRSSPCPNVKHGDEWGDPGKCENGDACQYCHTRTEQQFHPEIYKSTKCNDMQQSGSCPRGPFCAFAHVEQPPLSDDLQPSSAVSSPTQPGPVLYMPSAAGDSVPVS
Technique: RNA Bind-n-Seq
Form: RNA
Sample: in vitro
Tested at: not given
Notes: RNA with constant flanks, human-mouse chimeric sites, ends assumed
Relative to: input RNA pool
Reading: higher = stronger binding
Quantity: bound/input enrichment
Shared flanks, not repeated: GGGAGUUCUACAGUCCGACGAUC … CAACAGAGGAUUGAGCAUCA
AGAUUCCCUCUCUUAAAACCUCCUCCGAAGUUGGAGUCUCUUACAGAUGCCUCAUCCCCUGUUAGCGUUUUAGUUUGGACCACACAACCUUGGACAAUUCCCGCCAACCAGGCAAUUUGC: 1.01 ratio
CAGCCUCAGAGCCCUGACUUCCUGGAUAUCACCAACCCUAAAGCGGUAUUAGAAAAUGCAUUGAGAAACUUCGCCUGUCUGACGACUGGAGAUGUGAUUGCUAUCAACUACAAUGAGAAG: 0.669 ratio
ACCUCCCCCUCCCGCCUCACCCCACCCAAGAAAGAAAGAAAGUUUUUGGCGUUUCUUUUCCUUCCCCAUACAAAGUGGUUUUUACCACCCCCGCAAGGGUCUAUCGAAGGGCUUGACGGA: 0.491 ratio
AUCAAAUAUUUUGGGGACAUCAUUAGUGUGGGACAGAGACUGUUGCAAGGAGCUCGGAUCUUAGGGAUUCCAGUUAUCAUAACGGAACAAUACCCCAAAGGACUUGGCAGCACCGUUCAA: 0.211 ratio
ACCUCCCCCUCCCGCCUCACCCCACCCCCGCUUUUUGAAAGUGUGUUGGCGUUUCUUUUCCUUCCCCAUACAAAGUGAUUACAGUUUAGAGUCUAUGGGUCUAUCGAAGGGCUUGACGGA: 0.566 ratio
GUAUACGGUUAUCGAGGAAAGGACUGUAGAGCGAAUGUAUACCUGCUUCCCACAGGGGAGAUAGUUUAUUUUAUCGCAUCAGUAGUAGUCCUGUUUAAUUAUGAGGAGAGAACUCAGCGA: 9.87 ratio
CCAAUCGUGGAGCAGUACUUGAAGACAAAGAAAAAUUCUAAUAAUUUAAUCAUCAAGUACAUUAGCUGCCGGCUGGUGACACUCAUCAUUAUACUGUUAGCGUGUAUCUACCUGGGCUAU: 0.402 ratio
AGAGAAAUGAGAAAGAAUCUUACACAAGAAGAGAUGCAAAGAAUGUCUACUAGAGUCCUUUUGGCGACUCUUUCCAUUCCUAUUACUCCUGAGCGAACGGAUAUUGCUCGACUUCUGGAU: 0.302 ratio
AAAGAGAAAGCUAAAACACUAAUAGAGAAGAGGAUUGGCAAAGAGAAUUUCAUAGAGAAACUAGGAUUUUAUUAGCAACAUGAGUUAUAUUCCAGAGCGUCUCAGAAACCCCAGCCAAAC: 9.7 ratio
CGCUGGCCCAAGCUGAUGUAAAUGUUUCUUGAUCUCUUCUCAGGCACGUGUGCCUUCUCUUAGUCCCUGUUUUCGGGAUGUUAUGAAUCUCAGUACUGUGGUUUGAAAGCACCAGCUUUG: 0.21 ratio
CUUUUUAAGAAGAUAUGUGAUGGGAUCUUUUAUACCCCUCAAUAUUUAAACCCUUCAGUAAUCAGCCUUUUGAAACAUAUGCUGCAGGUGGAUCCCAUGAAGAGGGCCGCAAUAAAAGAU: 0.233 ratio

Block 4
Target: Fragile X messenger ribonucleoprotein 1, C-terminal low-complexity region (Fmr1, Mus musculus, UniProt P35922)
Technique: RNA Bind-n-Seq
Form: RNA
Sample: in vitro
Tested at: 200 nM
Notes: whole 134-nt RNA, ends assumed
Added: 150 mM KCl
Relative to: input library
Reading: higher = stronger binding
Quantity: log2 enrichment
Shared flanks, not repeated: GGGAGUUCUACAGUCCGACGAUC … UGGAAUUCUCGGGUGUCAAGG
UCCUGUGCUACACAUCGUAUGUACCGAAUCGGGGAAAAAAAGGGGAAAAAGGGGAGGGGAAAGUAUUAUGUUACGCCGUUCGGAUCUGCA: 0.658
CUCAAGUCCUGUGCUACACAUCGUAUGUACCGAAUCGGAGGAGGAAAAAAAGGAAAGUAUUAUGUUACGCCGUUCGGAUCUGCACUUCCA: -0.267
AGUCCUGUGCUACACAUCGUAUGUACCGAAUCGGGGUUUGGGGUGGGGAAAAAGGGGAAAGUAUUAUGUUACGCCGUUCGGAUCUGCACU: 0.651
GUCCUGUGCUACACAUCGUAUGUACCGAAUCGGGUUUUUGGUUUUUGGGGUUUUUGGGGAAAGUAUUAUGUUACGCCGUUCGGAUCUGCA: -0.0269
UCCUCAAGUCCUGUGCUACACAUCGUAUGUACCGAAUCGGGCGGCGGGGCGGAAAGUAUUAUGUUACGCCGUUCGGAUCUGCACUUCCAG: 0.0358
UCAAGUCCUGUGCUACACAUCGUAUGUACCGAAUCGGGAAAAAGGGAGGGAGGGAAAGUAUUAUGUUACGCCGUUCGGAUCUGCACUUCC: 1.04
UUCAGUUUCCCAAACCUGAGAUGAUCUGUCAGCUGGAGAACUGGGACGAGCAGUGGAUCCUGGAUCUACCGAGAACUGGGAAUAGGAAGG: 0.206
AAGUCCUGUGCUACACAUCGUAUGUACCGAAUCGGGUUUGGGAAAGGGUUUUUGGGAAAGUAUUAUGUUACGCCGUUCGGAUCUGCACUU: 0.746
UAGGUAAGAAAGUACUCAUUGUCUAUGCACACCAGGAACCCAAGUCUUUCAACGGAUCCUUGAAGAAUGUGGCUGUAGAUGAACUGAGCA: 0.1
UUCCUCAGGGUAGAACUGGAUGACUCAGACGUGUUCCAUGGUGAACCUGAACCUGAGGAGCUGCCUGGAGGUAAGGGCCCUGAACUGUCC: -2.62
CAAGUCCUGUGCUACACAUCGUAUGUACCGAAUCGGAAAGGGGAAAGGGAAAGGGAAAGUAUUAUGUUACGCCGUUCGGAUCUGCACUUC: 0.325
CCUGUGCUACACAUCGUAUGUACCGAAUCAAACCCCCCCAAAUUUUUAAAUUUUUUUAAAAAAGUAUUAUGUUACGCCGUUCGGAUCUGC: 0.243
UCAAGUCCUGUGCUACACAUCGUAUGUACCGAAUCGGGGAAGGGGAAGGGGAAGGAAAGUAUUAUGUUACGCCGUUCGGAUCUGCACUUC: 0.233
CACAGACAACACGCACCCACACAGACACAGAGGGAAGGGGUUGGGAUGGGGACAGGGUACACAGCAGGGCGGGGUAGGACCCCAGCCCCU: 1.14

Block 5
Target: PABPC1L2, full length, GST fusion (mouse, UniProt A0ABA7IW68)
Technique: RNAcompete
Form: RNA
Sample: in vitro
Tested at: 20 nM
Notes: 7-mer, probes averaged, single round
Relative to: mean of 7-mers
Reading: higher = stronger binding
Quantity: 7-mer Z-score
Construct (chain): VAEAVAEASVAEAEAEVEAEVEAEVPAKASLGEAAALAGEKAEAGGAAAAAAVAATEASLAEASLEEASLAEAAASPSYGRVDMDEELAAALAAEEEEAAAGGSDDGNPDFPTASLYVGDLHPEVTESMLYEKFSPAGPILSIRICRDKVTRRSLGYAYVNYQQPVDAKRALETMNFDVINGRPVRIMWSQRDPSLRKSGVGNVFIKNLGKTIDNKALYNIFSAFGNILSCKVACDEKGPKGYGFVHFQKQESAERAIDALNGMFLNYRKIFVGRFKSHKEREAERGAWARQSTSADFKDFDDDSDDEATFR
GCGACAG: 0.135
UACAGGA: 0.166
GAAUAAA: 2.65
GGCAACC: 0.149
UAGUAGC: -0.32
UCGGUUU: -0.483
AUGCGAA: 0.227
CGCAUGA: -0.0482
ACUCGCA: -0.358
CAGUGUU: -0.273
GAGUGAG: -0.262
AUGGACG: 0.0841
CACAUAC: -0.244
AGUCUUA: -0.365
GAUGUUG: -0.253
GUCCUAG: -0.186

Excerpt of the above (block 3):
ACCUCCCCCUCCCGCCUCACCCCACCCAAGAAAGAAAGAAAGUUUUUGGCGUUUCUUUUCCUUCCCCAUACAAAGUGGUUUUUACCACCCCCGCAAGGGUCUAUCGAAGGGCUUGACGGA: 0.491 ratio
AGAGAAAUGAGAAAGAAUCUUACACAAGAAGAGAUGCAAAGAAUGUCUACUAGAGUCCUUUUGGCGACUCUUUCCAUUCCUAUUACUCCUGAGCGAACGGAUAUUGCUCGACUUCUGGAU: 0.302 ratio
AUCAAAUAUUUUGGGGACAUCAUUAGUGUGGGACAGAGACUGUUGCAAGGAGCUCGGAUCUUAGGGAUUCCAGUUAUCAUAACGGAACAAUACCCCAAAGGACUUGGCAGCACCGUUCAA: 0.211 ratio
AGAUUCCCUCUCUUAAAACCUCCUCCGAAGUUGGAGUCUCUUACAGAUGCCUCAUCCCCUGUUAGCGUUUUAGUUUGGACCACACAACCUUGGACAAUUCCCGCCAACCAGGCAAUUUGC: 1.01 ratio
CUUUUUAAGAAGAUAUGUGAUGGGAUCUUUUAUACCCCUCAAUAUUUAAACCCUUCAGUAAUCAGCCUUUUGAAACAUAUGCUGCAGGUGGAUCCCAUGAAGAGGGCCGCAAUAAAAGAU: 0.233 ratio
GUAUACGGUUAUCGAGGAAAGGACUGUAGAGCGAAUGUAUACCUGCUUCCCACAGGGGAGAUAGUUUAUUUUAUCGCAUCAGUAGUAGUCCUGUUUAAUUAUGAGGAGAGAACUCAGCGA: 9.87 ratio
